Measured values pooled from the literature.
Lines come from different studies, so protocols differ. ± marks the error that the study gave.
CD38: ADP-ribosyl cyclase/cyclic ADP-ribose hydrolase 1 (CD38, Homo sapiens, UniProt P28907)
T1: RNA aptamer; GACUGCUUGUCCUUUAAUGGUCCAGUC
T2: RNA aptamer A50U; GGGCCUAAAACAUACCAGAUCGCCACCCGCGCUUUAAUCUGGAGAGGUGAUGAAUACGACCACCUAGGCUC

`O=C(O)C(CO)NCc1cc(Cl)c(OCc2cccc(-c3ccccc3)c2Br)cc1OCc1cccnc1` (stereo not drawn) — result for “dissociation rate constant (koff)”: 0.00559 s⁻¹ (Programmed cell death ligand 1 (Rattus norvegicus, UniProt D4AE25); SPR).
`CC(C)n1ccn2cc(C(=O)NCc3ccc(F)cc3F)c(=O)c(O)c2c1=O` has a potency ratio of roughly 4 fold (gag-pol/sso7d, integrase (Human immunodeficiency virus type 1 group M subtype B, UniProt P12497+P39476); integrase strand transfer; HIV-1; baseline: cabotegravir, higher = more potent).
Under “melting temperature change”, `NC[C@@H]1O[C@H](O[C@H]2[C@@H](O)[C@H](O[C@@H]3[C@@H](O)[C@H](N)C[C@H](N)[C@H]3O[C@H]3O[C@H](CN)[C@@H](O)[C@H](O)[C@H]3N)O[C@@H]2CO)[C@H](N)[C@@H](O)[C@@H]1O` is recorded as 21.3 °C (T1, RNA aptamer; UV melting; 1 µM RNA, 10 µM molecule, pH 6.8, NaCl 100 mM).
`CCCCCCCC/C=C\CCCCCCCC(=O)O[C@@H]1C=CCO[C@H]1COP(=O)(O)S` (stereo partly drawn) has an Emax of 13% (Lysophosphatidic acid receptor 6 (Homo sapiens, UniProt P43657); agonist, TGFα shedding).
The remaining activity of `O=c1c(-c2ccc(OCc3ccc(F)cc3)cc2)coc2cc(OCc3ccc(F)cc3)cc(OCc3ccc(F)cc3)c12` is reported as 49 ± 1.5% (CD38; hydrolase activity, fluorometric; 50 µM, together with: ε-NAD+ substrate; baseline: untreated).
The ΔTm max of `O=C(/C=C/c1ccc(O)cc1)c1c(O)cc(O)cc1O` is reported as 6.4 °C (Chalcone isomerase-like protein 1 (CHIL1, Humulus lupulus, UniProt A0A2U7XUH7); binding, differential scanning fluorimetry).
Under “k4 rate constant”, `CCc1cc(C)nc2c(CC(=O)N(CC)CC)c(-c3ccc(OCC[18F])cc3)nn12` is recorded as 0.103 ± 0.016 min⁻¹ (Tspo (Rattus norvegicus, UniProt P16257); two-tissue compartment model; rat C6 glioma model, brain; 60 min dynamic PET).
`CC[C@@H](N[C@@H](C)CC(=O)NCCN)c1ccc(Cl)c(Oc2ccccc2)c1F` — result for IC50: “inactive” (Genome polyprotein, NS3 protease (Hepatitis C virus genotype 1b, UniProt P26663); protease activity, inhibitor).
`BP(=O)(OP(=O)([O-])OC[C@H]1O[C@@H](n2c[n+](C)c3c(=O)[nH]c(N)nc32)[C@H](O)[C@@H]1O)OP(=O)([O-])OC[C@H]1O[C@@H](n2c[n+](C)c3c(=O)[nH]c(N)nc32)[C@H](O)[C@@H]1O` gave a cleavage of 20% (m7GpppX diphosphatase (dcs-1, Caenorhabditis elegans, UniProt G5EFS4); hydrolysis by DcpS, substrate, HPLC; 15 µM, 10 min, pH 7.6, 20 °C, enzyme 200 nM).
With `CC[C@H](C)[C@H](NC(=O)[C@H](CCC(=O)O)NC(=O)[C@H](CO)NC(=O)[C@@H](NC(=O)[C@@H](N)CO)C(C)C)C(=O)N[C@@H](CCC(N)=O)C(=O)N[C@@H](CC(C)C)C(=O)N[C@@H](CCSC)C(=O)N[C@@H](Cc1c[nH]cn1)C(=O)N[C@@H](CC(N)=O)C(=O)N[C@@H](CC(C)C)C(=O)NCC(=O)N[C@@H](CCCCN)C(=O)N[C@@H](Cc1c[nH]cn1)C(=O)N[C@@H](CC(C)C)C(=O)N[C@@H](CC(N)=O)C(=O)N[C@@H](CO)C(=O)N[C@@H](CCSC)C(=O)N[C@@H](CCC(=O)O)C(=O)N[C@@H](CCCNC(=N)N)C(=O)N[C@H](C(=O)N[C@@H](CCC(=O)O)C(=O)N[C@@H](Cc1c[nH]c2ccccc12)C(=O)N[C@@H](CC(C)C)C(=O)N[C@@H](CCCNC(=N)N)C(=O)N[C@@H](CCCCN)C(=O)N[C@@H](CCCCN)C(=O)N[C@@H](CC(C)C)C(=O)N[C@@H](CCC(N)=O)C(=O)N[C@@H](CC(=O)O)C(=O)N[C@H](C(=O)N[C@@H](Cc1c[nH]cn1)C(=O)N[C@@H](CC(N)=O)C(=O)N[C@@H](Cc1ccccc1)C(=O)N[C@@H](CCCCNC(=O)c1ccc2c(c1)C1(OC2=O)c2ccc(N(C)C)cc2Oc2cc(N(C)C)ccc21)C(N)=O)C(C)C)C(C)C` the koff was 0.0051 ± 0.0006 s⁻¹ (PTH1R (Homo sapiens, UniProt Q03431); binding, NanoBRET; HEK293).
Under “binding free energy ΔG°”, `CC(=O)NCCN(CCC(=O)NCCN(CCC(=O)NCCN(CCC(=O)NCCC(N)=O)C(=O)[C@@H](N)Cc1ccccc1)C(=O)[C@@H](N)Cc1ccccc1)C(=O)[C@@H](N)CCCNC(=N)N` is recorded as -36.7 ± 1.2 kJ/mol (HIV-1 TAR RNA; 25 °C).
`CN(C)c1ccc2c(c1)C(=O)N([C@H](CS)C(=O)O)C2=O` has a fluorescence increase of 8.6 fold (Metallo-beta-lactamase type 2 (Serratia marcescens, UniProt P52699); 10 µM, together with: 3 equivalents protein, ZnSO4 up to 50 µM).
For `CC(=O)NCCN(CC(=O)NCCN(CC(=O)NCCN(CC(=O)NCCC(N)=O)C(=O)[C@@H](N)CCCNC(=N)N)C(=O)[C@@H](N)CCCCN)C(=O)[C@@H](N)Cc1ccccc1`, the non-electrostatic ΔG° was -25.8 ± 0.7 kJ/mol (HIV-1 TAR RNA; extrapolated to 1 M KCl).
`Cc1cc(O)c2c(c1)C(=O)c1cc3oc(=O)cc(-c4ccccc4)c3c(O)c1C2=O` has an inhibition of 13.2 ± 0.14% (mushroom tyrosinase; enzyme activity; 25 µg/mL, together with: L-DOPA).
With `CC(=O)NCCN(CC(=O)NCCN(CC(=O)NCCN(CC(=O)NCCC(N)=O)C(=O)C[C@@H](N)CCCCN)C(=O)C[C@@H](N)Cc1ccccc1)C(=O)C[C@@H](N)Cc1ccccc1` the non-electrostatic TΔS° was 0.7 ± 1.3 kJ/mol (HIV-1 TAR RNA).
With `CC(C)C[C@H](NC(=O)[C@H](CCCNC(=N)N)NC(=O)[C@H](Cc1ccc(O)cc1)NC(=O)CCCCCCC(=O)N[C@@H](Cc1ccc(O)cc1)C(=O)N[C@@H](CCCNC(=N)N)C(=O)N[C@@H](CC(C)C)C(=O)NN(CCCNC(=N)N)C(=O)N[C@@H](Cc1ccc(O)cc1)C(N)=O)C(=O)NN(CCCNC(=N)N)C(=O)N[C@@H](Cc1ccc(O)cc1)C(N)=O` the intrinsic activity was 0.12 (NPY4R (Homo sapiens, UniProt P50391); β-arrestin-2 recruitment, agonist; HEK293T; concentration not given, unit not given; baseline: 1 µM human pancreatic polypeptide).
Under “specific activity ratio”, `CCCCCC(=O)Nc1ccc(OC)nc1C` is recorded as 1.5 (CES1 (Homo sapiens, UniProt P23141); enzyme activity, substrate; baseline: CES1 over human CES2).
With `CCc1nc2cc3ccccc3cc2cc1C(=O)N1CCC[C@H]1C(=O)N[C@@H](C/C=C\C[C@H](NC(=O)[C@@H]1CCCN1C(=O)c1cc2cc3ccccc3cc2nc1CC)C(=O)N[C@@H](CCCCN)C(=O)NCCCN)C(=O)N[C@@H](CCCCN)C(=O)NCCCN` the residence time was 67 s (HIV-1 frameshift site RNA; SPR).
The residence time of `CN(C)c1ccc2c(-c3ccc(C(=O)NCCCn4cc(COc5cc(C(=O)c6cc(Cl)ccc6NS(=O)(=O)c6ccc(C(C)(C)C)cc6)cc[n+]5[O-])nn4)cc3C(=O)[O-])c3ccc(=[N+](C)C)cc-3oc2c1` is reported as 5400 s (CCR9 (Homo sapiens, UniProt P51686); binding, BRET; cell membranes).
For `CC(C)=CCCC(C)=CCc1cc(-c2coc3cc(OC4OC(C(=O)O)C(O)C(O)C4O)ccc3c2=O)ccc1O` (stereo not drawn), the Vmax was 776 pmol/min/mg (UGT1A9 (Homo sapiens, UniProt O60656); glucuronidation, substrate, recombinant enzyme).
With `CCc1nc2sc(C(=O)c3ccc(C(C)C)cc3)c(N)c2c2c1CCCC2` the remaining activity was 51.2 ± 4.8% (CD38; hydrolase activity, fluorometric; 50 µM, together with: ε-NAD+ substrate; baseline: untreated).
With `O=C1CC[C@H](N2Cc3cc(-c4ccn5nccc5n4)ccc3C2=O)C(=O)N1` the Dmax was 79% (Cereblon/Casein kinase I alpha (CSNK1A1/CRBN, Homo sapiens, UniProt P48729+Q96SW2); protein level, degrader, luciferase; MOLT-4).
`COc1cc(-c2cnc3nc2NCCCNS(=O)(=O)c2cccc(c2)N3)ccc1F`: “thermal shift ΔTm” 3.6 K (EPHA4 (Homo sapiens, UniProt P54764); differential scanning fluorimetry; 10 µM; higher = stronger binding).
Under “binding free energy ΔG°”, `CC(=O)NCCN(CCC(=O)NCCN(CCC(=O)NCCN(CCC(=O)NCCC(N)=O)C(=O)[C@@H](N)CCCCN)C(=O)[C@@H](N)Cc1ccccc1)C(=O)[C@@H](N)Cc1ccccc1` is recorded as -36.6 ± 1.2 kJ/mol (HIV-1 TAR RNA; 25 °C).
`C[C@]12C[C@H](c3ccc(S(C)(=N)=O)cc3)C3=C4CCC(=O)C=C4CC[C@H]3[C@@H]1CC[C@@]2(O)C(F)(F)C(F)(F)F` (stereo partly drawn) — result for “fully effective dose”: roughly 0.5 mg/kg (Progesterone receptor (Rattus norvegicus, UniProt Q63449); pregnancy termination; rat, early pregnancy; oral).
`CN1CCN(CC(=O)N2N=C3/C(=C/c4ccccc4)CCCC3C2c2ccccc2)CC1` (mixture of isomers): “lag phase change” 140 s (ALOX15 (Homo sapiens, UniProt P16050); activator; 10 µM, together with: arachidonic acid 25 µM; baseline: no activator).
The non-electrostatic TΔS° of `CC(=O)NCCN(CC(=O)NCCN(CC(=O)NCCN(CC(=O)NCCC(N)=O)C(=O)[C@@H](N)CCCCN)C(=O)[C@@H](N)Cc1ccccc1)C(=O)[C@@H](N)Cc1ccccc1` is reported as -23.8 ± 1.4 kJ/mol (HIV-1 TAR RNA).
`CNc1ccccc1C(=O)O[C@H]1C[C@H](n2cnc3c(N)ncnc32)O[C@@H]1COP(=O)(O)OP(=O)(O)O`: “pocket forward rate constant” 0.24 ± 0.15 s⁻¹ (Unconventional myosin-Va (Gallus gallus, UniProt Q02440, D297C/G292C/I296C/S293C/V295G); stopped-flow FRET; 4 °C, together with: MgCl2 2 mM).
With `C=C1C(=O)O[C@@H]2[C@H]3C(CO)=CC(=O)C3=C(C)C[C@H](O)[C@@H]12` the Vmax was 0.013 mM/min (MAL12 (Saccharomyces cerevisiae S288c, UniProt P53341); enzyme activity, inhibitor; 65.22 µM).
`Nc1ncnc2c1ncn2[C@@H]1O[C@H](CO)[C@@H](O[C@H]2O[C@H](CO)[C@@H](OP(=O)(O)O)[C@H](OP(=O)(O)O)[C@H]2O)[C@H]1O` has a Hill coefficient of 0.7 ± 0.1 (Itpr1 (Rattus norvegicus, UniProt P29994); binding, 3H-IP3 competition; rat cerebellum).
For `CN(C)[C@@H]1C(=O)C(C(N)=O)=C(O)[C@@]2(O)C(=O)C3=C(O)c4c(O)cccc4[C@@](C)(O)[C@H]3C[C@@H]12`, the Kd was 0.196 µM (T2, RNA aptamer A50U; fluorescence titration; pH 7.5, 25 °C, MgCl2 10 mM).
The enrichment factor of `NC(=O)C1CCNC(=O)C(CCCNC(=O)c2cnccn2)NC(=O)C(Cc2ccco2)NC(=O)C(CC2CC2)NC(=O)C=CC(=O)N1` (stereo not drawn) is reported as 1.1 (MAPK14 (Homo sapiens, UniProt Q16539); DNA-templated library selection; one selection round).
For `CSCC[C@H](NC(=O)[C@H](CO)NC(=O)[C@@H](NC(=O)[C@H](CCC(N)=O)NC(C)=O)[C@@H](C)O)C(=O)N[C@H](C(=O)N[C@@H](CC(=O)O)C(=O)N[C@@H](Cc1ccccc1)C(=O)N[C@@H](Cc1ccc(O)cc1)C(=O)N[C@@H](Cc1c[nH]cn1)C(=O)N[C@@H](CO)C(N)=O)[C@@H](C)O`, the binding stoichiometry was 0.7 ± 0.004 (PCNA (Homo sapiens, UniProt P12004); isothermal titration calorimetry; concentration not given, pH 7.4, 25 °C, 100 mM NaCl, together with: p21 peptide).

A few entries again:
The residence time of `CN(C)c1ccc2c(-c3ccc(C(=O)NCCCn4cc(COc5cc(C(=O)c6cc(Cl)ccc6NS(=O)(=O)c6ccc(C(C)(C)C)cc6)cc[n+]5[O-])nn4)cc3C(=O)[O-])c3ccc(=[N+](C)C)cc-3oc2c1` is reported as 5400 s (CCR9 (Homo sapiens, UniProt P51686); binding, BRET; cell membranes).
For `CC(C)=CCCC(C)=CCc1cc(-c2coc3cc(OC4OC(C(=O)O)C(O)C(O)C4O)ccc3c2=O)ccc1O` (stereo not drawn), the Vmax was 776 pmol/min/mg (UGT1A9 (Homo sapiens, UniProt O60656); glucuronidation, substrate, recombinant enzyme).
